Measured values of several laboratories.
Each line is one published result; not all experiments were run side by side. ± gives the spread as reported.
Method: steady-state kinetics
B1: IYD (Homo sapiens, UniProt Q6PHW0); chain MGEPRTRAEARPWVDEDLKDSSDLHQAEEDADEWQESEENVEHIPFSHNHYPEKEMVKRSQEFYELLNKRRSVRFISNEQVPMEVIDNVIRTAGTAPSGAHTEPWTFVVVKDPDVKHKIRKIIEEEEEINYMKRMGHRWVTDLKKLRTNWIKEYLDTAPILILIFKQVHGFAANGKKKVHYYNEISVSIACGILLAALQNAGLVTVTTTPLNCGPRLRVLLGRPAHEKLLMLLPVGYPSKEATVPDLKRKPLDQIMVTV
B2: YdjH (Escherichia coli, UniProt P77493); chain MDNLDVICIGAAIVDIPLQPVSKNIFDVDSYPLERIAMTTGGDAINEATIISRLGHRTALMSRIGKDAAGQFILDHCRKENIDIQSLKQDVSIDTSINVGLVTEDGERTFVTNRNGSLWKLNIDDVDFARFSQAKLLSLASIFNSPLLDGKALTEIFTQAKARQMIICADMIKPRLNETLDDICEALSYVDYLFPNFAEAKLLTGKETLDEIADCFLACGVKTVVIKTGKDGCFIKRGDMTMKVPAVAGITAIDTIGAGDNFASGFIAALLEGKNLRECARFANATAAISVLSVGATTGVKNRKLVEQLLEEYEG
B3: Ma-WS/DGAT G25V (Marinobacter nauticus); chain MTPLNPTDQLFLWLEKRQQPMHVGVLQLFSFPEGAPDDYVAQLADQLRQKTEVTAPFNQRLSYRLGQPVWVEDEHLDLEHHFRFEALPTPGRIRELLSFVSAEHSHLMDRERPMWEVHLIEGLKDRQFALYTKVHHSLVDGVSAMRMATRMLSENPDEHGMPPIWDLPCLSRDRGESDGHSLWRSVTHLLGLSGRQLGTIPTVAKELLKTINQARKDPAYDSIFHAPRCMLNQKITGSRRFAAQSWCLKRIRAVCEAYGTTVNDVVTAMCAAALRTYLMNQDALPEKPLVAFVPVSLRRDDSSGGNQVGVILASLHTDVQEAGERLLKIHHGMEEAKQRYRHMSPEEIVNYTALTLAPAAFHLLTGLAPKWQTFNVVISNVPGPSRPLYWNGAKLEGMYPVSIDMDRLALNMTLTSYNDQVEFGLIGCRRTLPSLQRMLDYLEQGLAELELNAGL
B4: protein (Rheum palmatum, UniProt A0A7L9A2S6); chain MKKTELVFLPAPAPGHLVSTVEFSKRLIARDARLTVTILVISSPFSRGAQTNPSPGIRYVTLPQVDVPQHLMKDSIEHTISVYIASHAPHVRDAVAALQTESTVHVAGLFLDMFCTPMIDVANELGLPSYVFFCSSAGFLGLLLHLPVHSQPRFDETGLDVLIPSFQNPVPTRVLPRFGFNELGYKSFMDHAKRFGETKGIIINTYAELEPYALKSLLDAYDTAPVYAVGPVLDLRSQVHMPCDAAERARIMGWLDKQPDSSVVFLCFGSGGSFSEHQIREISKGLSQSGQRFLWSVRKPPTGGLVKPTEYTETELRSVLGDEFWSLLDEGERGVVCGWAPQVEVLGHKSVGAFVSHCGWNSTLESLWFGKPMVTWPLYAEQQMNAFELVKELGIAVELTLDYRLHSSEVVEAREVERAVRRVMDENNPVRYKVKEMAEVCRATLVEGGSSFVCVDRLISGFLGEIN
B5: protein Y93D (Thermus thermophilus, UniProt Q5SKR5); chain MSAPKPFVIGIAGGTASGKTTLAQALARTLGERVALLPMDHYYKDLGHLPLEERLRVNYDHPDAFDLALYLEHAQALLRGLPVEMPVYDFRADTRSPRRTPVRPAPVVILEGILVLYPKELRDLMDLKVFVDADADERFIRRLKRDVLERGRSLEGVVAQYLEQVKPMHLHFVEPTKRYADVIVPRGGQNPVALEMLAAKALARLARMGAA
B6: putA N641A (Bradyrhizobium diazoefficiens, UniProt Q89E26); chain MPNIPPPFTAPYAPDDAEIAARLLPASHLSPPQEARIHRTATRLIEAIRKRDDRLGGVEDMLREFALSTKEGLALMVLAEALLRVPDARTADQFIEDKLGEGDFIHHETKSTAFLVNASAWALGLSARVIQPGETPDGTIGRLVKRLGAPAVRTATRQAMRLMGNHFVLGETIEQALERGKPRSGQKTRYSFDMLGEGARTAADARRYFDAYASAIETIGKAAGNHALPDRPGISVKLSALHPRFEAISRARVMVELVPQLLDLAQRAKAHDLNFTVDAEEADRLELSLDVIAATLADPSLKGWDGFGLAIQAYQKRASAVIDYVDALARAHDRKLMVRLVKGAYWDTEIKRAQERGLDGYPVFTRKAMTDLNYVACASKLLALRPRIFPQFATHNALTVATVLEMAEGSSGFEFQRLHGMGEALYEQLAKDHADIAYRTYAPVGSHRDLLAYLVRRLLENGANSSFVAQAADYRVPVPALLQRPADAIVRPQAAAHPRIPLPCDLFAPERRNSRGVEFGARTALDQLLTDVKAETGDLKPIADATPDQAHAAVAAARAGFAGWSRTPAGIRAAALEQAAHLLESRSAHFIALLQREGGKTLDDALSELREAADFCRYYAAQGRKLFGSETAMPGPTGESAALTMRGRGVFVAISPWNFPLAIFLGQVTAALMAGNSVVAKPAEQTPRIAREAVALLHEAGIPKSALYLVTGDGRIGAALTAHPDIAGVVFTGSTEVARSINRALAAKDGPIVPLIAETGGINAMIADATALPEQVADDVVTSAFRSAGQRCSALRLLFVQEDVADRMIEMVAGAARELKIGDPSDVATHVGPVIDVEAKQRLDAHIARMKTEARLHFAGPAPEGCFVAPHIFELTEAGQLTEEVFGPILHVVRYRPENLERVLRAIERTGYGLTLGVHSRIDDSIEAIIDRVQVGNIYVNRNMIGAVVGVQPFGGNGLSGTGPKAGGPHYLARFATEQTVTINTAAAGGNAALLAGEE
B7: UGT84B1 (Arabidopsis thaliana, UniProt O22182); chain MGSSEGQETHVLMVTLPFQGHINPMLKLAKHLSLSSKNLHINLATIESARDLLSTVEKPRYPVDLVFFSDGLPKEDPKAPETLLKSLNKVGAMNLSKIIEEKRYSCIISSPFTPWVPAVAASHNISCAILWIQACGAYSVYYRYYMKTNSFPDLEDLNQTVELPALPLLEVRDLPSFMLPSGGAHFYNLMAEFADCLRYVKWVLVNSFYELESEIIESMADLKPVIPIGPLVSPFLLGDGEEETLDGKNLDFCKSDDCCMEWLDKQARSSVVYISFGSMLETLENQVETIAKALKNRGLPFLWVIRPKEKAQNVAVLQEMVKEGQGVVLEWSPQEKILSHEAISCFVTHCGWNSTMETVVAGVPVVAYPSWTDQPIDARLLVDVFGIGVRMRNDSVDGELKVEEVERCIEAVTEGPAAVDIRRRAAELKRVARLALAPGGSSTRNLDLFISDITIA
B8: protein (Allochromatium vinosum, UniProt P45370); chain MFPIDIRPDKLTQEMLDYSRKLGQGMENLLNAEAIDTGVSPKQAVYSEDKLVLYRYDRPEGAPEAQPVPLLIVYALVNRPYMTDIQEDRSTIKGLLATGQDVYLIDWGYPDQADRALTLDDYINGYIDRCVDYLREAHGVDKVNLLGICQGGAFSLMYSALHPDKVRNLVTMVTPVDFKTPDNLLSAWVQNVDIDLAVDTMGNIPGELLNWTFLSLKPFSLTGQKYVNMVDLLDDPDKVKNFLRMEKWIFDSPDQAGETFRQFIKDFYQNNGFLNGGVVLGGQEVDLKDITCPVLNIFALQDHLVPPDASRALKGLTSSPDYTELAFPGGHIGIYVSGKAQKEVTPAIGKWLNER
B9: HARS1 Y454S (Homo sapiens, UniProt P12081); chain MAERAALEELVKLQGERVRGLKQQKASAELIEEEVAKLLKLKAQLGPDESKQKFVLKTPKGTRDYSPRQMAVREKVFDVIIRCFKRHGAEVIDTPVFELKETLMGKYGEDSKLIYDLKDQGGELLSLRYDLTVPFARYLAMNKLTNIKRYHIAKVYRRDNPAMTRGRYREFYQCDFDIAGNFDPMIPDAECLKIMCEILSSLQIGDFLVKVNDRRILDGMFAICGVSDSKFRTICSSVDKLDKVSWEEVKNEMVGEKGLAPEVADRIGDYVQQHGGVSLVEQLLQDPKLSQNKQALEGLGDLKLLFEYLTLFGIDDKISFDLSLARGLDYYTGVIYEAVLLQTPAQAGEEPLGVGSVAAGGRYDGLVGMFDPKGRKVPCVGLSIGVERIFSIVEQRLEALEEKIRTTETQVLVASAQKKLLEERLKLVSELWDAGIKAELLYKKNPKLLNQLQSCEEAGIPLVAIIGEQELKDGVIKLRSVTSREEVDVRREDLVEEIKRRTGQPLCIC
Chain of UniProt Q7L266 (whole entry, looked up): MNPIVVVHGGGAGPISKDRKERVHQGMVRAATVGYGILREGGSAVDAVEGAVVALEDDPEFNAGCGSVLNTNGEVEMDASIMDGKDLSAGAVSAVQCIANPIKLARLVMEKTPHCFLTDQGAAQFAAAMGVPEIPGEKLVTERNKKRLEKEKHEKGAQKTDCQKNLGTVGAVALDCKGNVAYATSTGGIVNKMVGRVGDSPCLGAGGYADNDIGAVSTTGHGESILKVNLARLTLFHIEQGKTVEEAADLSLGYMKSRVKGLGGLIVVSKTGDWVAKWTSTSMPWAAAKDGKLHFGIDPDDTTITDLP

Molecule	substrate	pH	temperature	setting	added	kcat/Km [M⁻¹ s⁻¹]
B1 (IYD)	N[C@@H](Cc1cc(F)c(O)c(I)c1)C(=O)O	pH 7.4	25 °C		sodium dithionite 0.5%	1700 ± 400
α-amino ester hydrolase (Xanthomonas campestris, UniProt Q8P8K4)	CC1=C(C(=O)O)N2C(=O)[C@@H](NC(=O)[C@H](N)c3ccccc3)[C@H]2SC1	pH 7	25 °C	phosphate 100 mM		95000
B2 (YdjH)	OC[C@H]1O[C@H](CO)[C@@H](O)[C@@H]1O	pH 7.4	30 °C	KCl 100 mM	ATP 2.0 mM, MgCl2 5.0 mM	1.4 ± 0.2
B3 (Ma-WS/DGAT G25V)	CCCCCC(=O)SCCNC(=O)CCNC(=O)[C@H](O)C(C)(C)COP(=O)(O)OP(=O)(O)OC[C@H]1O[C@@H](n2cnc3c(N)ncnc32)[C@H](O)[C@@H]1OP(=O)(O)O	pH 7.5	25 °C	NaCl 300 mM, lower limit, not saturable, apparent	1-hexanol 4 mM	30.9 ± 0.5
enzyme (UniProt A0A7J5BGR1)	C=CCc1ccc(O)c(OC)c1	pH 8	25 °C			73600
alanine aminopeptidase (Neisseria meningitidis, UniProt Q9JYV4)	NC(=O)Cc1cc(=O)oc2cc(NC(=O)[C@@H](N)CC3CCCCC3)ccc12	pH 7.5	37 °C			31000 ± 1000
B4 (protein)	O=c1c(O)c(-c2ccc(O)cc2)oc2cc(O)cc(O)c12	pH 7.5	35 °C	apparent	UDP-glucose	10.4
B5 (protein Y93D)	Nc1ccn([C@@H]2O[C@H](CO)[C@@H](O)[C@H]2O)c(=O)n1	pH 7.2	25 °C	KCl 100 mM	ATP 100–200 µM	5800
B6 (putA N641A)	O=C(O)[C@@H]1CCCN1	pH 8	23 °C			29 ± 15
B7 (UGT84B1)	O=C(O)Cc1c[nH]c2ccccc12	pH 7.5	30 °C		UDP-glucose 4 mM, MgSO4 2.5 mM	70 ± 10
B8 (protein)	CC[C@@H](O)CC(=O)SCCNC(=O)CCNC(=O)[C@H](O)C(C)(C)COP(=O)(O)OP(=O)(O)OC[C@H]1O[C@@H](n2cnc3c(N)ncnc32)[C@H](O)[C@@H]1OP(=O)(O)O	pH 7.8	30 °C			892000
Ptb (Listeria monocytogenes, UniProt Q8Y7B7)	CCCCCC(=O)SCCNC(=O)CCNC(=O)[C@H](O)C(C)(C)COP(=O)(O)OP(=O)(O)OC[C@H]1O[C@@H](n2cnc3c(N)ncnc32)[C@H](O)[C@@H]1OP(=O)(O)O	pH 7.5	25 °C	apparent, poor fit		1.7e+06
B9 (HARS1 Y454S)	N[C@@H](Cc1c[nH]cn1)C(=O)O	pH 7.5	37 °C	KCl 150 mM	tRNA(His)	1.2e+06 ± 400000
ASRGL1 (Homo sapiens, UniProt Q7L266)	CC(C)C[C@H](NC(=O)C[C@H](N)C(=O)O)C(=O)O	pH 7.4	37 °C	NaCl 100 mM		4000 ± 500

Some of these lines once more:
Molecule	substrate	pH	temperature	setting	added	kcat/Km [M⁻¹ s⁻¹]
B9 (HARS1 Y454S)	N[C@@H](Cc1c[nH]cn1)C(=O)O	pH 7.5	37 °C	KCl 150 mM	tRNA(His)	1.2e+06 ± 400000
α-amino ester hydrolase (Xanthomonas campestris, UniProt Q8P8K4)	CC1=C(C(=O)O)N2C(=O)[C@@H](NC(=O)[C@H](N)c3ccccc3)[C@H]2SC1	pH 7	25 °C	phosphate 100 mM		95000
